Measurements from different studies.
Every numbered part comes from another study and shows a few of its results, in no order.
Sequence of UniProt Q15349 (whole entry, looked up): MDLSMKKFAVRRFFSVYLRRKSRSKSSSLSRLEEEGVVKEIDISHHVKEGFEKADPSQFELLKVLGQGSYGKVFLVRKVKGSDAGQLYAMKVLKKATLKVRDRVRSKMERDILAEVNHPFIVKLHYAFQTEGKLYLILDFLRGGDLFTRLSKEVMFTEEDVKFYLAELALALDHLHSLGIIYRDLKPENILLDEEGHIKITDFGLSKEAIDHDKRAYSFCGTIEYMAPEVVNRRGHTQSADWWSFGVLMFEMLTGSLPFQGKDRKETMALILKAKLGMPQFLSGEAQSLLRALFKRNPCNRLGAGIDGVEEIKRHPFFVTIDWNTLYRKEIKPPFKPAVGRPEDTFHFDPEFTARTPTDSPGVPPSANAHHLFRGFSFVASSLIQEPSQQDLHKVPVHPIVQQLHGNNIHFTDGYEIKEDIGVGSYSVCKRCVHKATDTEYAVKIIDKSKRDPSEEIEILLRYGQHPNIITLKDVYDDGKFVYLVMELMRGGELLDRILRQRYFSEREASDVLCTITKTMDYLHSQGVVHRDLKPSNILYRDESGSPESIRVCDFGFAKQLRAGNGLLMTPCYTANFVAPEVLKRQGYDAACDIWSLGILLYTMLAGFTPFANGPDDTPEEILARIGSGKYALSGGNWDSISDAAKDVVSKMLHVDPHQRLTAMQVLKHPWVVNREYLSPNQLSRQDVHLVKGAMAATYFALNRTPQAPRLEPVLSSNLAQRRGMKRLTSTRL
Sequence of UniProt Q9HC98 (whole entry, looked up): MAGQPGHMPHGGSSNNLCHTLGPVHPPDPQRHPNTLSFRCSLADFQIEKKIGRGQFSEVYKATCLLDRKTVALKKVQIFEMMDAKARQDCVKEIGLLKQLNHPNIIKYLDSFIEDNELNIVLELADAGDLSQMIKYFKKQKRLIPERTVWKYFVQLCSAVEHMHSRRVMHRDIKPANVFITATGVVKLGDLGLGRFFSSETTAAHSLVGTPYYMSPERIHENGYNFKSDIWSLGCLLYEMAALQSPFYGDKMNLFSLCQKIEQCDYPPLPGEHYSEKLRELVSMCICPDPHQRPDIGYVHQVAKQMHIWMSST
Sequence of UniProt P27361 (whole entry, looked up): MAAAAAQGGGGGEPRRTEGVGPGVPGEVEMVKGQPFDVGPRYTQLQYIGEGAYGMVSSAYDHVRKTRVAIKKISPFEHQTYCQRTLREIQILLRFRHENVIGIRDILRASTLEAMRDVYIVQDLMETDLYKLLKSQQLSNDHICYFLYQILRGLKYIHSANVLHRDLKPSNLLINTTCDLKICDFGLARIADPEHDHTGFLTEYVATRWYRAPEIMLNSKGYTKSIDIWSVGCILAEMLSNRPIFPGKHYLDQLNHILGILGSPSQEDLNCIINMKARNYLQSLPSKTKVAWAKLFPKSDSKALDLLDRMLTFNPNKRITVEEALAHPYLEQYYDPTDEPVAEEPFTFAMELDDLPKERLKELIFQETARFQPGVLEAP
Sequence of UniProt Q02763 (whole entry, looked up): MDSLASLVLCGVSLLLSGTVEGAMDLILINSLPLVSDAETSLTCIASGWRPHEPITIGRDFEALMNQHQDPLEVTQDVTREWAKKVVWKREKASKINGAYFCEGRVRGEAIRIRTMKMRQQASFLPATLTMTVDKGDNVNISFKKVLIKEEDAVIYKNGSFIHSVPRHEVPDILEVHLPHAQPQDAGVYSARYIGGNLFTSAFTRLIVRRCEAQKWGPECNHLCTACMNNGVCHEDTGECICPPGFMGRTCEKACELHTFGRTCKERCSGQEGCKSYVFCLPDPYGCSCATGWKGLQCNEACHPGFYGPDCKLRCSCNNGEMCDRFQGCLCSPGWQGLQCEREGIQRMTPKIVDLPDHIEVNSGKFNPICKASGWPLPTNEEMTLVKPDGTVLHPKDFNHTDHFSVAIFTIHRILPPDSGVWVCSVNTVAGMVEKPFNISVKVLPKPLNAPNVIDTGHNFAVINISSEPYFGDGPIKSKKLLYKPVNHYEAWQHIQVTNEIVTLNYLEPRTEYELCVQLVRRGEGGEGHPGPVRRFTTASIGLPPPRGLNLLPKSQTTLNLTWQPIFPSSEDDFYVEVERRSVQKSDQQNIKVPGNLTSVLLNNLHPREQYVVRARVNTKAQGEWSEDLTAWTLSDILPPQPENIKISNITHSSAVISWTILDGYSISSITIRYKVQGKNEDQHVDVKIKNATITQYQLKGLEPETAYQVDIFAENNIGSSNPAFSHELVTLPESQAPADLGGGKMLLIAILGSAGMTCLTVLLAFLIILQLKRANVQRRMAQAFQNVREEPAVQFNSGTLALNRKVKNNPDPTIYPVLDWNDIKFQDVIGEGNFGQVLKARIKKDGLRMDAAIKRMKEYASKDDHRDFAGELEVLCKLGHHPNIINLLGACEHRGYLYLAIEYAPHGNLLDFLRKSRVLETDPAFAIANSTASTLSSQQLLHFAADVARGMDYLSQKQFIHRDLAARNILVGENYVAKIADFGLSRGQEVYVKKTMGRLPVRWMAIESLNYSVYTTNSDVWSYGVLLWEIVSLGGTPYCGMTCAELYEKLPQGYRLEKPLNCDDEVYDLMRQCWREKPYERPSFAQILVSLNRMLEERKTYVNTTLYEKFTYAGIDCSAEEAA
Sequence of UniProt P11362 (whole entry, looked up): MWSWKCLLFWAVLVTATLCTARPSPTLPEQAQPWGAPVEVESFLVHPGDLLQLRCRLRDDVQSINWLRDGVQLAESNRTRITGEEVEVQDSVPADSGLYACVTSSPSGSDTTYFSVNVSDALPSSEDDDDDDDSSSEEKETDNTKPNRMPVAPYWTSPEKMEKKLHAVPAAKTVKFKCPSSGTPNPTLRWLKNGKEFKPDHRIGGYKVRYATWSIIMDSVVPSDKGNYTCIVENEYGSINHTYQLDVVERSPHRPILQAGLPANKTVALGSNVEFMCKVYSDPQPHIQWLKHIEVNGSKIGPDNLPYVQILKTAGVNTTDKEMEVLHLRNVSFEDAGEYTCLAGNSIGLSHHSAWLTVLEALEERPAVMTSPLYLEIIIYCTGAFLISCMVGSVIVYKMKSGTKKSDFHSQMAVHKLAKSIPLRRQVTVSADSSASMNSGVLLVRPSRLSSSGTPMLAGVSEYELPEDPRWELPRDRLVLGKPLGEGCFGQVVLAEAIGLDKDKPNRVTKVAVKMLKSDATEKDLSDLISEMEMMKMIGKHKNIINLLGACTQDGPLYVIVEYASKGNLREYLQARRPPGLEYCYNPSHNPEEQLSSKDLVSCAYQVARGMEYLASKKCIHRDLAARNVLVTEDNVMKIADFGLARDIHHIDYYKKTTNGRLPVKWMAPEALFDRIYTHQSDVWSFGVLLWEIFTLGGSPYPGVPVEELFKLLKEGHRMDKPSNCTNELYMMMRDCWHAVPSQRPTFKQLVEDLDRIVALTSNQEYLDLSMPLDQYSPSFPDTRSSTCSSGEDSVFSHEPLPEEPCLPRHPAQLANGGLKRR
Sequence of UniProt Q12866 (whole entry, looked up): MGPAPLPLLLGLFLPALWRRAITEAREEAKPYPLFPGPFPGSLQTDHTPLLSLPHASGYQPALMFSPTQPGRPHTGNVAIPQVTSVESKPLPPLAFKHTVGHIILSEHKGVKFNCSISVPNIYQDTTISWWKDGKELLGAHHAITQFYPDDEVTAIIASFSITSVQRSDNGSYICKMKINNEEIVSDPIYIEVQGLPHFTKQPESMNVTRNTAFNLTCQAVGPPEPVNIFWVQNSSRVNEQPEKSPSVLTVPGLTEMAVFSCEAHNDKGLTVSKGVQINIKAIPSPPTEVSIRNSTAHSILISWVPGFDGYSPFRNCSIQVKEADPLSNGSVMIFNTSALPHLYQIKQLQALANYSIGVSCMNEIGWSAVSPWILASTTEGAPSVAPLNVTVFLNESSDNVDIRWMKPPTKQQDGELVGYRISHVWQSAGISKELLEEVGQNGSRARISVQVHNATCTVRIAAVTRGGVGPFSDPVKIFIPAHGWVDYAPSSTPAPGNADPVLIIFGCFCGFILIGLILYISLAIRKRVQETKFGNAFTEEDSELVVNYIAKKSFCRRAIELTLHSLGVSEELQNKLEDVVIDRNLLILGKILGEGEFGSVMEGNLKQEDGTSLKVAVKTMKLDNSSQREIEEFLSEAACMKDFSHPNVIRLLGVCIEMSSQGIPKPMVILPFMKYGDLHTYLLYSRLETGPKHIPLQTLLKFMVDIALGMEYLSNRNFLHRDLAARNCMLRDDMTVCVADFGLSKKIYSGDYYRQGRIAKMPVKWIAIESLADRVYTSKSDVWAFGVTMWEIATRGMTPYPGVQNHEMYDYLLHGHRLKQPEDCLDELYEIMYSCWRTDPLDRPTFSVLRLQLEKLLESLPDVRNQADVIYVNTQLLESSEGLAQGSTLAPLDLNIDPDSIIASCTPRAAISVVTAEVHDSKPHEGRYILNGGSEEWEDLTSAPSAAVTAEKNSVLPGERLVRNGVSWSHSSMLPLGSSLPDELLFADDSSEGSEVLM

Series 1
Compound: CCn1cnc2c(Nc3cccc(Cl)c3)nc(N[C@H]3CCCC[C@H]3N)nc21
Observed: enzyme activity
Mode: inhibitor
Concentration: 0.5 µM
Reference: control
Endpoint: remaining activity
target = MERTK (Homo sapiens, UniProt Q12866); result = 76.2%
target = FGFR1 (Homo sapiens, UniProt P11362); result = 85.7%
target = NEK6 (Homo sapiens, UniProt Q9HC98); result = 102%
target = TEK (Homo sapiens, UniProt Q02763); result = 99.9%
target = RPS6KA2 (Homo sapiens, UniProt Q15349); result = 45.1%
target = MAPK3 (Homo sapiens, UniProt P27361); result = 108%

Series 2
Target: vesicular stomatitis virus glycoprotein
Observed: viral entry
Method: VSVΔG-G pseudovirus
Concentration: 10 µM
Endpoint: inhibition
Structure (SMILES) = COc1ccc(NC(=O)N2c3ccccc3CC2c2nc(C(C)C)no2)c(C)c1 (stereo not shown); result = -12%
Structure (SMILES) = Fc1ccccc1CN1CCCC(NCc2cccn2-c2nccs2)C1 (stereo not shown); result = -2%
Structure (SMILES) = C=CCNc1nnc(Sc2ncnc3ccsc23)s1; result = 7.5%
Structure (SMILES) = CCc1c2c(nc3ccc(O)cc13)-c1cc3c(c(=O)n1C2)COC(=O)[C@]3(O)CC; result = -1.5%
Structure (SMILES) = COc1ccc2c(c1)[nH]c1c(C)nccc12; result = 6%
Structure (SMILES) = CS(=O)(=O)c1cc(C(F)(F)F)cc(S(C)(=O)=O)c1S(C)(=O)=O; result = 12%
Structure (SMILES) = CC(C)(C)N1COc2c(cc(Cl)c3cccnc23)C1; result = 23%
Structure (SMILES) = O=C1CN(c2ncnc3sc4c(c23)CCCC4)CCN1; result = -29%

Series 3
SMILES: CC(C)(C)OC(=O)N[C@H]1CCCCC/C=C\[C@@H]2C[C@@]2(C(=O)NS(=O)(=O)C2CC2)NC(=O)[C@@H]2C[C@@H](OC(=O)N3Cc4cccc(F)c4C3)CN2C1=O
Endpoint: inhibition
target = Genome polyprotein, NS3 protease (Hepatitis C virus genotype 1b, UniProt Q9WMX2, R1181Q); setting = 1 µM; result = 99%
target = Genome polyprotein (Hepatitis C virus genotype 1b, UniProt Q9WMX2); assay = protease activity, inhibitor; setting = 0.001 µM; result = 58%
target = Genome polyprotein, NS3 protease (Hepatitis C virus genotype 1b, UniProt Q9WMX2, R1181K); setting = 1 µM; result = 94%

Single results of other studies
Organism: Sarcocystis neurona
Observed: parasite growth
Concentration: 10 µM
Setting: first screen
SMILES = CCC(COC(=O)c1cc(OC)c(OC)c(OC)c1)(c1ccccc1)N(C)C.O=C(O)/C=C\C(=O)O (stereo not shown); inhibition = -20.6%
SMILES = Cl.Oc1cc2c(cc1O)[C@H]1c3ccccc3CN[C@@H]1CC2; inhibition = -10.1%

Excerpt of the above (series 3):
target = Genome polyprotein, NS3 protease (Hepatitis C virus genotype 1b, UniProt Q9WMX2, R1181Q); setting = 1 µM; result = 99%
target = Genome polyprotein (Hepatitis C virus genotype 1b, UniProt Q9WMX2); assay = protease activity, inhibitor; setting = 0.001 µM; result = 58%
